Experimental data pooled from the literature.
Numbered parts are unrelated; each lists some results of a single study. Positions count from the first letter of the parent shown.

Series 1 — technique: protein binding microarray; form: double-stranded DNA, one strand shown; sample: in vitro; tested at: not given; reference: not given; direction: higher = stronger binding
Target: Histone acetyltransferase KAT6A, winged helix 1, GST fusion (KAT6A, Homo sapiens, UniProt Q92794, residues 1-85)
Notes: 8-mer, flanks averaged, mean of 2 arrays, mostly near background
Residues (chain): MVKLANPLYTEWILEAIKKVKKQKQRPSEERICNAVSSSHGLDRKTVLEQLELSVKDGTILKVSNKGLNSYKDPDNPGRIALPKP
`GAGTAATC` gave an E-score of -0.116.
The E-score of `CGGCAGCC` is reported as 0.329.
The E-score of `AAGCAAAC` is reported as -0.139.
With `AGCACACT` the E-score was -0.0373.
`ACCATTGG` has an E-score of -0.129.
For `CCTGAGCA`, the E-score was -0.189.
With `AAGCATGT` the E-score was -0.106.
`ATGCTCGA` gave an E-score of -0.193.
For `AGGCATGG`, the E-score was 0.1.
With `CGATTGGA` the E-score was -0.257.
The E-score of `AGAGCAAC` is reported as -0.184.
For `ATAAAGGG`, the E-score was 0.0998.
With `ACCCAGCA` the E-score was -0.0243.
For `CTAAATAC`, the E-score was -0.0801.
With `AGAGCCCC` the E-score was -0.106.
For `CAGGTGCG`, the E-score was 0.102.

Series 2 — target: CCNA1, cyclin fold, Cln2 fusion (human); technique: yeast growth competition, sequencing; sample: yeast; notes: weak parent motif; reference: not given; direction: higher = stronger binding
Starting sequence: E2F2 docking peptide (human); LPAKRKLDLEGIG
Under “normalised enrichment score”, `LPAKRKLDAEGIG [L9A]` is recorded as 0.226.
`LPAKRKADLEGIG [L7A]` — result for “normalised enrichment score”: 0.346.
Under “normalised enrichment score”, `LPAKRKLDLEGIA [G13A]` is recorded as 0.722.
Under “normalised enrichment score”, `LPAKRKLALEGIG [D8A]` is recorded as 0.0152.
Under “normalised enrichment score”, `LPAKKKLDLEGIG [R5K]` is recorded as 0.116.
`LPAKRKLDLEGAG [I12A]` — result for “normalised enrichment score”: 0.393.
`LPAKRKLDLEAIG [G11A]` — result for “normalised enrichment score”: 0.0465.
`LPAKKKLDFEGIG [R5K L9F]` — result for “normalised enrichment score”: 0.987.
For `LPAKAKADLEGIG [R5A L7A]`, “normalised enrichment score” read 0.361.

Series 3 — technique: DHFR PCA, deep sequencing; sample: yeast; together with: (+)-ABA 0.032 µM; reference: wild-type fitted maximum; direction: higher = stronger binding
Target: ABI1, truncated, D143A, DHFR fusion (Arabidopsis thaliana)
Notes: methotrexate growth selection, single substitutions
Starting sequence: PYL1, truncated, DHFR fusion (Arabidopsis thaliana); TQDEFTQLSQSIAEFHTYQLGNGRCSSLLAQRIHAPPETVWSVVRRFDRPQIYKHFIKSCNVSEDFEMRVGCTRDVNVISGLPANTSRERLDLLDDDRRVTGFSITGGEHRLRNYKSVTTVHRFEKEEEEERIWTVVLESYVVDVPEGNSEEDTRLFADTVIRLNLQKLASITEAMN; partner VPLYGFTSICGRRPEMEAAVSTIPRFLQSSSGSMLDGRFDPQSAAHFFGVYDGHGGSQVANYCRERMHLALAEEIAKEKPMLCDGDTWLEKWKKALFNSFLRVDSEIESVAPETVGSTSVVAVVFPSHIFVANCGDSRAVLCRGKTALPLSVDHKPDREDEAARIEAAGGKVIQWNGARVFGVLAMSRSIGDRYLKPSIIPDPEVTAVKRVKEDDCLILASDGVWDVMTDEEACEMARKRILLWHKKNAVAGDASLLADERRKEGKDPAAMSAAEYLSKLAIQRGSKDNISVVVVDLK
For `L91V`, “relative binding score” read 4.02%.
For `T160F`, “relative binding score” read 46.3%.
For `S27H`, “relative binding score” read 8.71%.
For `Q51I`, “relative binding score” read -8.75%.
`E129T` — result for “relative binding score”: 28.6%.
For `N149R`, “relative binding score” read 13%.
For `N85P`, “relative binding score” read 12.4%.
Under “relative binding score”, `A30N` is recorded as -3.75%.
Under “relative binding score”, `G23Y` is recorded as 1.14%.
For `D75Q`, “relative binding score” read 29.5%.
For `F15N`, “relative binding score” read 4.87%.
For `D144C`, “relative binding score” read -4.98%.
Under “relative binding score”, `T39S` is recorded as 3.47%.
Under “relative binding score”, `I133V` is recorded as 51.3%.
`R69F`: “relative binding score” -5.76%.
For `V100I`, “relative binding score” read 13.8%.
`L166C`: “relative binding score” 0.376%.
`T120V` — result for “relative binding score”: -2.55%.
Under “relative binding score”, `I105A` is recorded as -0.885%.
Under “relative binding score”, `C72N` is recorded as 3.69%.
Under “relative binding score”, `T135E` is recorded as -2.67%.
`S26M`: “relative binding score” 0.892%.
`E151L` — result for “relative binding score”: 20%.
For `G102S`, “relative binding score” read 6.91%.

Series 4 — technique: RNA Bind-n-Seq; form: RNA; sample: in vitro; tested at: not given; reference: input RNA pool; direction: higher = stronger binding
Target: RING finger protein unkempt homolog, zinc fingers 1-6, GST-SBP tag (UNK, Homo sapiens, UniProt Q9C0B0, residues 30-357)
Notes: RNA with constant flanks, human-mouse chimeric sites, ends assumed
Shared flanks, not repeated: GGGAGUUCUACAGUCCGACGAUC … CAACAGAGGAUUGAGCAUCA
Construct (chain): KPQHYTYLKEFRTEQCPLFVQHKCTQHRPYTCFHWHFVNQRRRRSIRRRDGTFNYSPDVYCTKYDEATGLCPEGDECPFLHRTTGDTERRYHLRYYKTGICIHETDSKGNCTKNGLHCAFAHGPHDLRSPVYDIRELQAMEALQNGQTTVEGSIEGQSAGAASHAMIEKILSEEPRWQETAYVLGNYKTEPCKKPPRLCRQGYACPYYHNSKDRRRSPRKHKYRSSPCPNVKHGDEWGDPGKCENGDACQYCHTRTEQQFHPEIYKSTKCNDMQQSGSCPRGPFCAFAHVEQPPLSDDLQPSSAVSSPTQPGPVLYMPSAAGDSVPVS
`GCAGGAUCUUCUAAGUACCAGUGGGACAUUAUGAAAUCCCUUGGGCUGUCUGAUGAAGAGAUAGUAAAGUUUUCUGAAGCAGAGCACUGGCUUGAUUAUUUCCCACCACUGGCCGUUCAG` has a bound/input enrichment of 0.201 ratio.
The bound/input enrichment of `UUAUCCAAGACUCAACGAAAGACUCCAACGGUUAUUCAUAAACAUUACCAAAUACAUCGGAUUCGACAUUUUUAUAUGAGAAAAGUCAAAUUUACUCAACAGAAUUACCAUGACAGACUG` is reported as 0.188 ratio.
With `UUUGUUUGUAACUUAUCUGUAAAAGGUUCCCCCCCCCACUGUCAAAAAAAUAUGCAUGUAUAGUAAUUAGGACUUCAUUCCUCCAUGUUUUCUUCCCUUAUCUUACUGUCAUUGUCCUUA` the bound/input enrichment was 1.66 ratio.
For `GUUGCCAGCUUCCGGUUGGCCUCCAUCCGGUUCUCUCCUGAGCUACGUGUCUCUACGCUCUCAAUCCGCCAUCCAACAAACAUGGAUCAGGUAAUGCAGUUUGUGGAGCCCAGCCGGCAG`, the bound/input enrichment was 0.1 ratio.
`AAAGAGAAAGCUAAAACACUAAUAGAGAAGAGGAUUGGCAAAGAGAAUUUCAUAGAGAAACUAGGAUUUAUUAGCAAACAUGAGUUAGUAUUCCAGACGUCUCAGAAACCCCAGCCAAAC` gave a bound/input enrichment of 2.47 ratio.
`GUAUACGGUUAUCGAGGAAAGGACUGUAGAGCUAAUGUAUACCUGCUUCCCACAGGGGAGAUAGUUUAUUUUAUCGCCUCAGUGGUAGUCCUGUUUAAUUAUGAGGAGAGGACUCAGCGA` gave a bound/input enrichment of 0.317 ratio.
`ACUCAGAGAUCCACCUCCCAAAGUGCUGGGAGUAAAGGUGUGGCCACCACACCUAACUUCAUAGACAUUUUAUAAAGUUAAUAUGAAUCUUCCUGUUCGUCCAGGGAAGAAAGAUUUGUU` gave a bound/input enrichment of 1.12 ratio.
The bound/input enrichment of `GUAGCUGGGACUACAGAAAUGCUGGUAAUUUCAGUCAGUGAGUCGUGACUUCUGAUGUCCCAGCAAAUGUUGGCAUUGUUGACUGCUGAGAAGAUACACUCGCAAGGCCACGUCUAAGGU` is reported as 0.0535 ratio.

Repeated from above (series 1):
With `CGATTGGA` the E-score was -0.257.
For `ATAAAGGG`, the E-score was 0.0998.
With `AAGCATGT` the E-score was -0.106.
The E-score of `AGAGCAAC` is reported as -0.184.
The E-score of `AAGCAAAC` is reported as -0.139.
